{"data": "Experimental data gathered from unrelated publications", "organism": "Plasmodium falciparum", "note": "Numbers after ± are the reported error."}
{"SMILES": "COc1cc(O)c(-c2ccc(OC)c3c(OC)cc(C)cc23)c2c1[C@H](C)N(C)[C@H](C)C2", "assay": "parasite growth", "test system": "K1", "conditions": "drug-resistant strain, blood stage", "IC50 [nM]": 1410}
{"SMILES": "CCC1=CC(=CNC2CCCCCC2)N=C1c1ccc[nH]1", "assay": "parasite growth", "test system": "Dd2, chloroquine-resistant", "IC50 [nM]": 523}
{"SMILES": "CC[C@H](C)[C@@H]1NC(=O)[C@H](CCCCN)NC(=O)[C@H](CCCCN)NC(=O)[C@H](Cc2ccc(O)cc2)NC(=O)[C@H](CC(C)C)NC(=O)[C@@H]2CCCN2C(=O)[C@H](C)NC(=O)CNC(=O)CNC(=O)[C@H](CO)NC(=O)CNC(=O)CNC(=O)[C@H](CCCNC(=N)N)NC(=O)[C@H](CCC(=O)O)NC(=O)[C@H](CC(C)C)NC(=O)[C@H](Cc2c[nH]cn2)NC(=O)[C@H](CCCCN)NC(=O)[C@H](CCCCN)NC(=O)[C@H]([C@@H](C)CC)NC(=O)[C@H]([C@@H](C)CC)NC(=O)[C@H](CCCCN)NC(=O)[C@H](CCCCN)NC(=O)[C@H](Cc2ccc(O)cc2)NC(=O)[C@H](CC(C)C)NC(=O)[C@@H]2CCCN2C(=O)CNC(=O)CNC(=O)[C@@H](NC(=O)CN)CSSC[C@@H](C(N)=O)NC(=O)[C@H](Cc2c[nH]cn2)NC(=O)[C@H](CCCCN)NC(=O)[C@H](CCCCN)NC(=O)[C@H]([C@@H](C)CC)NC1=O", "assay": "parasite growth", "test system": "3D7", "conditions": "72 h, 5% serum plus Albumax II", "IC50 [nM]": "> 67500"}
{"SMILES": "C=CC1CN2CCC1CC2C(OC(=O)NCCCCCCNC(=O)OC(c1ccnc2ccc(OC)cc12)C1CC2CCN1CC2C=C)c1ccnc2ccc(OC)cc12 (stereo not shown)", "assay": "parasite growth", "test system": "Dd2, chloroquine-resistant", "IC50 [nM]": "49.2 ± 6.2"}
{"SMILES": "CCCCNCC(O)Cn1c2ccccc2c2ccccc21 (stereo not shown)", "assay": "SYBR Green I", "test system": "Dd2 chloroquine-resistant", "conditions": "72 h", "IC50 [nM]": "334 ± 67"}
{"SMILES": "Cc1c(-c2ccc[nH]2)c[nH]c1C=NC12CC3CC(CC(C3)C1)C2", "assay": "parasite growth", "test system": "7G8, chloroquine-resistant", "IC50 [nM]": "> 2500"}
{"SMILES": "CC[C@H](C)[C@@H]1NC(=O)[C@H](CCCCN)NC(=O)[C@H](CCCCN)NC(=O)[C@H](Cc2ccc(O)cc2)NC(=O)[C@H](CC(C)C)NC(=O)[C@@H]2CCCN2C(=O)CNC(=O)CNC(=O)[C@@H](N)CSSC[C@@H](C(=O)N[C@@H](CCC(=O)O)C(=O)N[C@@H](CO)C(N)=O)NC(=O)[C@H](CC(C)C)NC(=O)[C@H](CCCCN)NC(=O)[C@H](CCCCN)NC(=O)[C@H]([C@@H](C)CC)NC(=O)[C@H]([C@@H](C)CC)NC(=O)[C@H](CCCCN)NC(=O)[C@H](CCCCN)NC(=O)[C@H](Cc2ccc(O)cc2)NC(=O)[C@H](CC(C)C)NC(=O)[C@@H]2CCCN2C(=O)[C@H](C)NC(=O)CNC(=O)CNC(=O)[C@H](CO)NC(=O)CNC(=O)CNC(=O)[C@H](CO)NC(=O)[C@H](CCC(=O)O)NC(=O)[C@H](CC(C)C)NC(=O)[C@H](CC(C)C)NC(=O)[C@H](CCCCN)NC(=O)[C@H](CCCCN)NC(=O)[C@H]([C@@H](C)CC)NC1=O", "assay": "parasite growth", "test system": "3D7", "conditions": "72 h, 5% serum plus Albumax II", "IC50 [nM]": "16900 ± 1100"}
{"SMILES": "Cc1[nH]c(C=NC23CC4CC(CC(C4)C2)C3)c(C)c1-c1ccc[nH]1", "assay": "parasite growth", "test system": "Dd2, chloroquine-resistant", "IC50 [nM]": 1740}
{"SMILES": "C[OH+][Cu-2]12[O]C(c3cn(-c4ccccc4)nc3-c3ccccc3)=N[N+]1=C(C)c1c(cc(C)oc1=O)[O]2 (stereo not shown)", "assay": "SYBR Green I", "test system": "3D7", "conditions": "72 h", "IC50 [nM]": 5200}
{"SMILES": "Oc1c(CN(Cc2ccccn2)Cc2ccccn2)cc(CCn2cc(COCCOCCOCCOCc3cn(CCc4cc(CN(Cc5ccccn5)Cc5ccccn5)c(O)c(CN(Cc5ccccn5)Cc5ccccn5)c4)nn3)nn2)cc1CN(Cc1ccccn1)Cc1ccccn1", "assay": "parasite growth, SYBR Green I", "test system": "3D7", "conditions": "72 h", "IC50 [nM]": "142 ± 34"}
{"SMILES": "CCC1=C(C)C(c2ccc[nH]2)=NC1=CNC1CCCCCC1", "assay": "parasite growth", "test system": "Dd2, chloroquine-resistant", "IC50 [nM]": 200}
{"SMILES": "CC[C@H](C)[C@@H]1NC(=O)[C@H](CCCCN)NC(=O)[C@H](CCCNC(=N)N)NC(=O)[C@H](Cc2ccc(O)cc2)NC(=O)[C@H](CC(C)C)NC(=O)[C@@H]2CCCN2C(=O)[C@H](C)NC(=O)CNC(=O)CNC(=O)[C@H](CO)NC(=O)CNC(=O)CNC(=O)[C@H](CO)NC(=O)[C@H](CCC(=O)O)NC(=O)[C@H](CC(C)C)NC(=O)[C@H](CC(C)C)NC(=O)[C@H](CCCCN)NC(=O)[C@H](CCCCN)NC(=O)[C@H]([C@@H](C)CC)NC(=O)[C@H]([C@@H](C)CC)NC(=O)[C@H](CCCCN)NC(=O)[C@H](CCCNC(=N)N)NC(=O)[C@H](Cc2ccc(O)cc2)NC(=O)[C@H](CC(C)C)NC(=O)[C@@H]2CCCN2C(=O)CNC(=O)CNC(=O)[C@@H](NC(=O)CN)CSSC[C@@H](C(N)=O)NC(=O)[C@H](CC(C)C)NC(=O)[C@H](CCCCN)NC(=O)[C@H](CCCCN)NC(=O)[C@H]([C@@H](C)CC)NC1=O", "assay": "parasite growth", "test system": "3D7", "conditions": "72 h, Albumax II medium, no serum", "IC50 [nM]": "5000 ± 200"}
{"SMILES": "C1=CC(c2ccc[nH]2)=NC1=CNC1CCCCCCC1", "assay": "parasite growth", "test system": "7G8, chloroquine-resistant", "IC50 [nM]": "> 2500"}
{"SMILES": "COc1cc2c3cc1Oc1cc(ccc1O)CC1c4c(cc(OC)c(O)c4Oc4ccc(cc4)CC3N(C)CC2)CCN1C (stereo not shown)", "assay": "parasite growth, SYBR green I", "test system": "3D7", "IC50 [nM]": "1510 ± 41.8"}
{"SMILES": "OCCCCCCCCCCOCCCc1cccnc1", "assay": "anti-HRPII ELISA", "test system": "W2 chloroquine-resistant", "conditions": "72 h", "IC50 [nM]": "14700 ± 200"}
{"SMILES": "C[C@@H](C[C@@H](O)[C@H](O)C(C)(C)O)[C@@H]1CC[C@]2(C)C3=CC[C@H]4C(C)(C)C(=O)CC[C@]4(C)[C@H]3CC[C@@]12C", "assay": "[3H]hypoxanthine incorporation", "test system": "W2, chloroquine-resistant", "IC50 [nM]": "36300 ± 4400"}
{"SMILES": "COc1ccc2cc1Oc1cc3c(cc1OC)CCN(C)C3Cc1ccc(cc1)Oc1c(O)c(OC)cc3c1C(C2)N(C)CC3 (stereo not shown)", "assay": "parasite growth, SYBR green I", "test system": "Cam3.1 R539T (MRA1240)", "IC50 [nM]": "64.8 ± 8.9"}
{"SMILES": "COC1=CC(c2ccc[nH]2)=NC1=CNC1CC1", "assay": "parasite growth", "test system": "7G8, chloroquine-resistant", "IC50 [nM]": 946}
{"SMILES": "O[Si](CCCN1CCCCC1)(c1ccc(F)cc1)C1CCCCC1 (stereo not shown)", "assay": "parasite proliferation, SYBR Green", "test system": "3D7", "conditions": "72 h", "IC50 [nM]": 16}
{"SMILES": "COc1cc2c3c4c1Oc1cc5c(cc1O4)[C@H](Cc1ccc(OCCCN(C)C)c(c1)Oc1ccc(cc1)C[C@@H]3N(C)CC2)N(C)CC5", "assay": "parasite growth, SYBR Green I", "test system": "drug-sensitive Cambodian isolates", "conditions": "median", "IC50 [nM]": 147}
{"SMILES": "CC[C@H](C)[C@@H]1NC(=O)[C@H](CCCCN)NC(=O)[C@H](CCCCN)NC(=O)[C@H](Cc2ccc(O)cc2)NC(=O)[C@H](CC(C)C)NC(=O)[C@@H]2CCCN2C(=O)CNC(=O)CNC(=O)[C@@H](NC(=O)CN)CSSC[C@@H](C(=O)N[C@@H](CCC(=O)O)C(=O)N[C@@H](CO)C(N)=O)NC(=O)[C@H](CC(C)C)NC(=O)[C@H](CCCCN)NC(=O)[C@H](CCCCN)NC(=O)[C@H]([C@@H](C)CC)NC(=O)[C@H]([C@@H](C)CC)NC(=O)[C@H](CCCCN)NC(=O)[C@H](CCCCN)NC(=O)[C@H](Cc2ccc(O)cc2)NC(=O)[C@H](CC(C)C)NC(=O)[C@@H]2CCCN2C(=O)[C@H](C)NC(=O)CNC(=O)CNC(=O)[C@H](CO)NC(=O)CNC(=O)CNC(=O)[C@H](CO)NC(=O)[C@H](CCCCN)NC(=O)[C@H](CC(C)C)NC(=O)[C@H](CC(C)C)NC(=O)[C@H](CCCCN)NC(=O)[C@H](CCCCN)NC(=O)[C@H]([C@@H](C)CC)NC1=O", "assay": "parasite growth", "test system": "3D7", "conditions": "72 h, 5% serum plus Albumax II", "IC50 [nM]": "12500 ± 1100"}
{"SMILES": "COC1=CC(c2ccc[nH]2)=NC1=CNC1CCCCC1", "assay": "parasite growth", "test system": "Dd2, chloroquine-resistant", "IC50 [nM]": 71}
{"note": "Excerpt of the above:"}
{"SMILES": "COC1=CC(c2ccc[nH]2)=NC1=CNC1CC1", "assay": "parasite growth", "test system": "7G8, chloroquine-resistant", "IC50 [nM]": 946}
